Measured values of several laboratories.
Parts stem from different laboratories: compare values within a part only. Positions count from the first letter of the parent shown.

Study 1 — method: universal PBM; molecule type: double-stranded DNA, one strand shown; medium: in vitro; tested at: 600 nM; direction: higher = stronger binding
Target: Sal-like protein 4, full length isoform A (SALL4, Homo sapiens, UniProt Q9UJQ4, residues 1-1053)
UniProt Q9UJQ4, sequence (whole entry, looked up): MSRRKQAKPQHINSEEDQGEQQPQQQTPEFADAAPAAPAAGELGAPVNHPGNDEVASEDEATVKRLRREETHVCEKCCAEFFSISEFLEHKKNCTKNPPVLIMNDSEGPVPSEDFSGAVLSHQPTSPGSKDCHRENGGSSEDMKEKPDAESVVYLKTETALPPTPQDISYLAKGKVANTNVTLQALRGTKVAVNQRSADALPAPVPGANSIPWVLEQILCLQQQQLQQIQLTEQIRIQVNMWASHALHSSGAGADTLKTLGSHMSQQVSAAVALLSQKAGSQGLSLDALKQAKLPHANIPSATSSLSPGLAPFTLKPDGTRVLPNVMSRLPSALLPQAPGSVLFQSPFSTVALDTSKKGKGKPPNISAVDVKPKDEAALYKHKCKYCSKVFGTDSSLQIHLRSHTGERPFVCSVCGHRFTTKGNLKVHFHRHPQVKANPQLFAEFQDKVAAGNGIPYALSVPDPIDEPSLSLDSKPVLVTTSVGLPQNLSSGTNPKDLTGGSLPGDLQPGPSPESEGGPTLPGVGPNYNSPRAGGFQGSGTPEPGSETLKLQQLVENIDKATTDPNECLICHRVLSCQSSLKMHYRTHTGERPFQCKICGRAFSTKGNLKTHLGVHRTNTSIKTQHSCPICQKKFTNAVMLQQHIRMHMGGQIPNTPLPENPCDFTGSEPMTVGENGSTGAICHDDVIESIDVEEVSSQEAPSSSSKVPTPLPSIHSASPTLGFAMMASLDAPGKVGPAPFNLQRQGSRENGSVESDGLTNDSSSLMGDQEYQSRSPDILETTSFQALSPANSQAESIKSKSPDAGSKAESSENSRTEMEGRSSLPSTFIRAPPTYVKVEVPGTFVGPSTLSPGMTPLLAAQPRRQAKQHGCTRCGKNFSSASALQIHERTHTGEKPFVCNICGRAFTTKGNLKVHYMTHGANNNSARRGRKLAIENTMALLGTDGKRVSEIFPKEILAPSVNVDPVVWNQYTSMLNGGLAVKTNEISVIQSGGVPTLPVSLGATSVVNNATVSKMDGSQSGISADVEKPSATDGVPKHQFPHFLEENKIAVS
Notes: 8-mer, flanks averaged, mean of replicates
Strand | E-score
GAAACACA | 0.205
CGAAACAC | 0.0669
ACGGCGCT | -0.359
ACCAAGTC | -0.0166
CATAAAAA | 0.358
CGCGCGAA | -0.251
AAGGCACT | -0.153
AAATGAGT | 0.241
CTGCGTTC | -0.118
AGGCATTC | -0.129
GCTCCCAA | -0.192
AAATTGCG | 0.237

Study 2 — target: CCNE2, cyclin fold, Cln2 fusion (human); method: yeast growth competition, sequencing; medium: yeast; notes: strong parent motif; reference: not given; direction: higher = stronger binding
Starting sequence: WEE1 docking peptide (human); HKTFRKLRLFDTP; partner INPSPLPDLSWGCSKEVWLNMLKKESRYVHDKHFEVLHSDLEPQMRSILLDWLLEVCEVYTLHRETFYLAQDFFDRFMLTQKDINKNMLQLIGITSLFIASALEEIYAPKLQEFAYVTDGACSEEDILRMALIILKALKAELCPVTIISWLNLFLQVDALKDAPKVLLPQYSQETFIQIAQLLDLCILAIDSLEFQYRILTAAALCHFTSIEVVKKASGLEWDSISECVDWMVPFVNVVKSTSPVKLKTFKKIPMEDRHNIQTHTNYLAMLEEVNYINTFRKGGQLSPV
Change | normalised enrichment score
HKTFRKVRLFDTP [L7V] | 0.402
HKTFRKLRLFNTP [D11N] | -0.562
HKTFRSLRLFDTP [K6S] | 1.01
HKTNRKLRLFDTP [F4N] | 0.812
HKTFRKLGLFDTP [R8G] | 0.867
HKTFCKLRLFDTP [R5C] | -0.146
HKWFRKLRLFDTP [T3W] | 0.379
HKDFRKLRLFDTP [T3D] | 0.113
HKTFRKLRLFDRP [T12R] | 1.48

Study 3 — method: RNAcompete; molecule type: RNA; medium: in vitro; tested at: 20 nM; notes: 7-mer, probes averaged, single round; reference: mean of 7-mers; direction: higher = stronger binding
Target: PABPC1L2, full length, GST fusion (mouse, UniProt A0ABA7IW68)
Target sequence (chain): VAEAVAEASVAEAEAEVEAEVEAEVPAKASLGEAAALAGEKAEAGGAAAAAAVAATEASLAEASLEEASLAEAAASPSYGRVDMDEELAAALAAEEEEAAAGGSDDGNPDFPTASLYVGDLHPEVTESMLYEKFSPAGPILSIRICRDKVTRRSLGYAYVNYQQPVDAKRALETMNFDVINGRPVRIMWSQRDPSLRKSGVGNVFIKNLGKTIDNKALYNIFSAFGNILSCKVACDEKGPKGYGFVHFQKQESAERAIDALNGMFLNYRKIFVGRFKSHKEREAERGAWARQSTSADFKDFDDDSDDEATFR
Strand | 7-mer Z-score
GCGCGCU | -0.295
UUACGAG | 0.119
GUAACUG | -0.166
GUGUGAA | 0.0261
AUUUUGC | -0.271
CCCGCAC | -0.389
GGGGGGC | 0.423
CCCCAAG | -0.28
GAGGCCG | 0.0859
GCCGCUA | -0.204
ACCACGA | 0.0388
AAGUUGC | 0.14

Other studies, line by line
Molecule | target | test | system | conditions | scale | quantity | value
PhoQ, residues 284 288 289 292 302 303 GTAMQF | PhoP, residues 12 14 15 18 19 AYFRS (Escherichia coli, UniProt P23836) | Sort-seq, measured: YFP reporter | E. coli | PhoQ-PhoP variant library, added: 10 µM Mg2+ | reference: high Mg2+ state, higher = stronger signaling | fold induction | 18.7
